Measured values of several laboratories.
A part holds a random share of what one study measured.

Set 1
Target: Interferon regulatory factor 7, full length, phosphomimetic (IRF7, Homo sapiens, UniProt Q92985, residues 1-503, S471D/S472D/S475D/S476D/S477D/S483D/S484D/S487D)
Method: protein-binding microarray
Molecule type: double-stranded DNA, one strand shown
Matrix: in vitro
Concentration: 2200 nM top
Setting: 60-bp whole probe
With: salmon DNA 0.4 mg/ml
Relative to: random background probes
Direction: higher = stronger binding
All sequences stand within: GCCTAGCAC … GTGCTAGGTCTTGATTCGCTTGACGCTGCTG
Construct (chain): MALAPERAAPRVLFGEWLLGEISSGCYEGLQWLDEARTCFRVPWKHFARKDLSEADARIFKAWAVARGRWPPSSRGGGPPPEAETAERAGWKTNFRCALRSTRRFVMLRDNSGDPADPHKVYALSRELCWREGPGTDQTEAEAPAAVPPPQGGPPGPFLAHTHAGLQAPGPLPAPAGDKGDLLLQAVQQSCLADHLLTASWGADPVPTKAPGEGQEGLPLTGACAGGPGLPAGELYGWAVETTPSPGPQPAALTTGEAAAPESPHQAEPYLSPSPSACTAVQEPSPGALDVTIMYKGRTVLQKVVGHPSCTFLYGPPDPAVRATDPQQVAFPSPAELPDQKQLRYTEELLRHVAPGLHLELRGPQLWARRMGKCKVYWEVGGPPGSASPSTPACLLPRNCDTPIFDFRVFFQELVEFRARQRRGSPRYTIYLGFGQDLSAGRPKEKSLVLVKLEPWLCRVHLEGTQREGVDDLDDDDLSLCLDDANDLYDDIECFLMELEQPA
Sequence | fitted relative affinity [z-score]
CACGGACTGGGTTTCGGGAC | 0.791
GACGGACTGGGTCTCAGGAC | -0.926
GTCGATTTCAGACTGGAGAC | 0.882
TTAGGACTGGGTTTCGGATA | 1.32
GACTATTTCAGTCTCGAGAC | 0.996
GACGGCATCCTTTTCCTGAC | 1.03
GACGGACTGGGACTGAGGAC | -0.968
GACAGTATCGGTCTCGGGAC | 0.476

Set 2
Target: Histone acetyltransferase KAT6A, both winged helices, GST fusion (KAT6A, Homo sapiens, UniProt Q92794, residues 1-181)
Method: protein binding microarray
Molecule type: double-stranded DNA, one strand shown
Matrix: in vitro
Concentration: not given
Setting: 8-mer, flanks averaged, mean of 2 arrays, mostly near background
Relative to: not given
Direction: higher = stronger binding
Residues (chain): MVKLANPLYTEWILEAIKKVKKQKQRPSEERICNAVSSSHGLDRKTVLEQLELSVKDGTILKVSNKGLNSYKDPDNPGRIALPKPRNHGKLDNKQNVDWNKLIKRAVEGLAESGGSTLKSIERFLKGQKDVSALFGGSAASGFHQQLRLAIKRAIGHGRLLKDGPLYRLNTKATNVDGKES
Sequence | E-score
CACATTAA | -0.177
CGAACTAA | -0.18
ACTATTCC | 0.0642
GACCACGA | -0.18
CTACTAAG | 0.0751

Set 3
Target: RNA binding protein fox-1 homolog 2, RRM domain, GST-SBP tag (RBFOX2, Homo sapiens, UniProt O43251-10, residues 100-194)
Method: RNA Bind-n-Seq
Molecule type: RNA
Matrix: in vitro
Concentration: 365 nM
Setting: natural RNA segment, single round, ends assumed
Relative to: no-protein control
Direction: higher = stronger binding
All sequences stand within: GGGAGUUCUACAGUCCGACGAUC … UGGAAUUCUCGGGUGCCAA
Target sequence (chain): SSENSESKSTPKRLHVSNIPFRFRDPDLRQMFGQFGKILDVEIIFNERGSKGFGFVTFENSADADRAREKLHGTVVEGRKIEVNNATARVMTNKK
Sequence | RBNS enrichment (R)
CUACCCUUCCAUGCCCCAGACCUCUGUCUUGCAUGUGACAAUUGACAAUCUGGACUACCCCAAGAUGGCACCCAAGUGUUUGGCUUCUGGCUACCUAAGGUUAACAUGUC | 2.03
UUAAAGCUUCCUGGUGCCUGUCUGCCAGGUCAUGGAGGAUUCCCCAAUCUGGCAUCCCCACGAUGCCUCUGGAGAGAUGGCCUUGAUUGCCCCUCAAAGCCACCUGAACC | 0.31
UGCCUACCCACUCCAGGACUCUCUCCCUCCCCCCAACCCCAUCCCCAUCUCUGAGCUAUGGGGCAAUCACUCCCAUUUUACCUUUGCCAUCCUUGACCUUCGUUCACCCC | 0.972
UGGCAGGCUGGUCCCCCUCCGUGAAAGUGUGGAUUCCUACUUCCUGCUCUAAGCUUUGACACGUCAAAAUGUGGGAUCAGAAAGAAAAAAAUCAUGAUAUUUAAAAAUGG | 0.302
ACAGCAGCCUGGCGUCAGUGACUGGUACCCCUUCUCCUGUGUCCAGUGCAGCCAUGGCAUGCCAGAGAAGUGGCAGCUGCCGCUGUGAGCCACGCAGGAUCCCGUGUCCU | 0.503
AAUGUUUGAUGCCUCUCUUCUGCAAAGCGUAUCAUCUCAUUGACUGUGAAUCUGUAUAUUAUUCUGAUGGAUACAGAUAAUGAUCUUUUCUCUUGUGAGGUAUCUUCAUU | 0.38

Further values, each from its own experiment
Molecule | target | assay | system | conditions | scale | quantity | result
PhoQ, residues 284 288 289 292 302 303 QWQEDG | PhoP, residues 12 14 15 18 19 HHYTI (Escherichia coli, UniProt P23836) | Sort-seq, item: YFP reporter | E. coli | PhoQ-PhoP variant library, with: 10 µM Mg2+ | relative to: high Mg2+ state, higher = stronger signaling | fold induction | 1.45

Excerpt of the above (set 1):
Sequence | fitted relative affinity [z-score]
TTAGGACTGGGTTTCGGATA | 1.32
GACTATTTCAGTCTCGAGAC | 0.996
